Results collected from several papers.
Numbered parts are unrelated; each lists some results of a single study.

Sample 1
Target: Histone acetyltransferase KAT6A, winged helix 2, GST fusion (KAT6A, Homo sapiens, UniProt Q92794, residues 85-181)
Method: protein binding microarray
Molecule type: double-stranded DNA, one strand shown
Matrix: in vitro
Concentration: not given
Notes: 8-mer, flanks averaged, mean of 2 arrays, mostly near background
Baseline: not given
Reading: higher = stronger binding
Construct (chain): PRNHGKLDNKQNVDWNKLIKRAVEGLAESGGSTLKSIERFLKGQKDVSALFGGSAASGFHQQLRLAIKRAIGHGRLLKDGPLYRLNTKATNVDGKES
`CATGCTCA` has an E-score of -0.0867.
With `TATTCCGA` the E-score was 0.0993.
With `AAGACGGT` the E-score was -0.175.
`GTTGCAGA` has an E-score of 0.0112.
`ATCCAAAG` gave an E-score of 0.0951.
`CTTGAACA` has an E-score of -0.00415.
With `TAGGTCAA` the E-score was -0.0411.
`CAGTTGTC` has an E-score of 0.105.
With `GTACCAAA` the E-score was 0.0052.
With `GGTGTGTA` the E-score was -0.166.
For `TCTTACCA`, the E-score was -0.0676.
With `CGCCGTTC` the E-score was 0.047.
`CATTCCAG` has an E-score of 0.0184.
`CAGAAGAC` has an E-score of -0.0684.
For `AGAAGTTG`, the E-score was -0.181.
`ATCATAAG` has an E-score of -0.0594.
`CCCTTGGC` has an E-score of 0.0927.
`ACGCATCT` has an E-score of 0.0837.

Sample 2
Target: Fragile X messenger ribonucleoprotein 1, C-terminal low-complexity region (Fmr1, Mus musculus, UniProt P35922)
Method: RNA Bind-n-Seq
Molecule type: RNA
Matrix: in vitro
Concentration: 200 nM
Notes: whole 134-nt RNA, ends assumed
With: 150 mM KCl
Baseline: input library
Reading: higher = stronger binding
With `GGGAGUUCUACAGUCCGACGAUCACCAUGCAGGUGGGCAUCUUUGGGAAGUGGGGCAAGGGGGGGAUAGGGAGGGGGGUAACAAAAUGGGAACAGGUGGUCCCAGGUCGUUUCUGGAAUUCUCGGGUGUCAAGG` the log2 enrichment was 0.404.
With `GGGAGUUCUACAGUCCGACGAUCGCAGGAAGUAAAAACAAAUGGAAAUGCUUCGGAUAGUGGCAGGGGUAAAGGUUGCUAAGGAAAGGGUGGGAUGGGAGUGGGUAAAGAGUUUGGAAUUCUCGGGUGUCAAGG` the log2 enrichment was 0.436.
The log2 enrichment of `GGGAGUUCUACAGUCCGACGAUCCAAGUCCUGUGCUACACAUCGUAUGUACCGAAUCGGGCCCGGGCCCGGGGCCCGGGAAAGUAUUAUGUUACGCCGUUCGGAUCUGCACUUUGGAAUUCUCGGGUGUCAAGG` is reported as -0.507.
With `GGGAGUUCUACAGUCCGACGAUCGUCCUGUGCUACACAUCGUAUGUACCGAAUCGGGGUUUUUGGGGUUUUUGGUUUUUGGAAAGUAUUAUGUUACGCCGUUCGGAUCUGCACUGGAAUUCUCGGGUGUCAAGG` the log2 enrichment was -0.126.
`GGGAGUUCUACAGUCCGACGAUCUCCUCAAGUCCUGUGCUACACAUCGUAUGUACCGAAUCGGUGGUGGUGGGGAAAGUAUUAUGUUACGCCGUUCGGAUCUGCACUUCCAGCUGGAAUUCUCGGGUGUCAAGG` gave a log2 enrichment of -0.0474.
`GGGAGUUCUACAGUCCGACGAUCUGGCCCUGGUGGCAUGCGGGGAGGAAGAGGUGGCCUCAUGGAUCGUGGUGGUCCCGGUGGAAUGUUCAGAGGUGGACGUGGUGGAGACAGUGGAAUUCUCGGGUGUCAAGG` gave a log2 enrichment of 0.179.
The log2 enrichment of `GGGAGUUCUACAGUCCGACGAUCCACAGACAACACGCACCCCCACAGACACAGAGGGAAGGGGUUGGGAUGGGGACAGGGUGCACAGCAGGGCGGGGUAGGACCCCAGCCCCUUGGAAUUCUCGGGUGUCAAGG` is reported as 1.4.
`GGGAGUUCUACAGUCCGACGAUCUAACUUUAGAGGAGUAUCUGAUGGAUAUGGCAGUGGACGUGGAUUUGGGGAUGGCUAUAAUGGGUAUGGAGGAGGACCUGGAGGUGGCAAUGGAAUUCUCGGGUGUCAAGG` gave a log2 enrichment of 0.451.
With `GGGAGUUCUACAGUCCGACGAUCUCCUGUGCUACACAUCGUAUGUACCGAAUCGGGUUUUUUGGUUUUUUGGGUUUUUUGGGAAAGUAUUAUGUUACGCCGUUCGGAUCUGCAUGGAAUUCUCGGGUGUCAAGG` the log2 enrichment was -0.149.
For `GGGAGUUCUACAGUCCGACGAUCGCAGGAAGUAAAAACAAAUGGAAAUGCUUCGGAUAGUGGCAGGGGUGGGGGUUGCUAAGGAAAGGGUGUGAUGGGAGUGGGUAAAGAGUUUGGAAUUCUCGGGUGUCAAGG`, the log2 enrichment was 0.236.

Sample 3
Target: RNA binding protein fox-1 homolog 2, RRM domain, GST-SBP tag (RBFOX2, Homo sapiens, UniProt O43251-10, residues 100-194)
Method: RNA Bind-n-Seq
Molecule type: RNA
Matrix: in vitro
Concentration: 365 nM
Notes: natural RNA segment, single round, ends assumed
Baseline: no-protein control
Reading: higher = stronger binding
Construct (chain): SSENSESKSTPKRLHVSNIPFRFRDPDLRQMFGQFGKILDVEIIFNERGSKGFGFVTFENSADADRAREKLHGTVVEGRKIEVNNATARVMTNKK
`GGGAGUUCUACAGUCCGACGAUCUAAACUCUGACUUCAAAGGUUUUUGGGGAAAGAUAGGUUUACCUCACAGUUAUGUUUCCAUUGUAAUUUCUAGGUUCCUCACAAAAAUCUAUUUCAGUGCUGUAGCUGUUUGGAAUUCUCGGGUGCCAA` — result for “RBNS enrichment (R)”: 0.401.
Under “RBNS enrichment (R)”, `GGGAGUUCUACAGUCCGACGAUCGUCAAGUAGUCCAUCUUAGCCCAGUUUGGGCUGGUUAGAGACUCCACAGCACCCAGGAGUGGCCCUGUCUUGCCACAAAGAGCCCGACCAGCAGGUCCUGCAGCUUACCAUGGAAUUCUCGGGUGCCAA` is recorded as 0.433.
For `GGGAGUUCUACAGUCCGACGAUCACUGUUUGAGGAAAAAUUACCUGUCUUGACUUCCUGUGUUUAUCAUCUUAAGUAUUGUAAGCUGCUGUGUAUGGAUCUCAUUGUAGUCAUACUUGUUUUCCCCAGAUGAGUGGAAUUCUCGGGUGCCAA`, “RBNS enrichment (R)” read 0.933.
For `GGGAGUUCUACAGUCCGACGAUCCAGUGCUCUUGAGCUGGGUCUCAGUCCCCUCCCAUGUCCUGUGCUCUGCCGCCACUGUUUUCAUUGUUGUGUUCUCGUUGUGAUUGUUAAGACUCACACUCCUGGCUCAGUGGAAUUCUCGGGUGCCAA`, “RBNS enrichment (R)” read 1.67.
`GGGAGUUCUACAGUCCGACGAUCAGUCACGAAGCUAUAUGCCAGGCUGCAAAGGAUGUCAAUAGCAUGUGGCAAUGGGGGUUUUUAUUGCCAUUCAUUCUUUAGCAACCUGGACUGCCAUCUUGGCAGACCUGUGGAAUUCUCGGGUGCCAA`: “RBNS enrichment (R)” 9.29.
`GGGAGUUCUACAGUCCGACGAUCCAGUAGUUGGAAACAUCUCAAUUACAGUGUAACACCUUAGAGCUAAAAACAUUUGUUCAACACAAACUAGAAUCACACCUUCUCACUAGAUAUCACCAAGGGAAUGUGGUUGGAAUUCUCGGGUGCCAA` — result for “RBNS enrichment (R)”: 0.404.
Under “RBNS enrichment (R)”, `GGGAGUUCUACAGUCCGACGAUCCUUUUAAAUCUCUUUGAAUCACAUUUGGUAGUGAUUUUGACUUAGUCCAGUAGUCACAUAGCUUUAAUAUCUAGUUCAAAGCUAACCAUAGUAUAAUUGUUAUAUUAAGGUGGAAUUCUCGGGUGCCAA` is recorded as 0.544.
`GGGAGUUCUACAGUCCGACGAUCACUAAUCUUACUUCCACAAAAUAUGUGAAUUUGCUGCUUCUGAGAGGCAAUGUGAAAGAGGGAGUAUUACUUUUAUGUACAAAGUUAUUUAUUUAUAGAAAUUUUGGUACUGGAAUUCUCGGGUGCCAA` — result for “RBNS enrichment (R)”: 0.756.
`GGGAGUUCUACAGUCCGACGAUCACCCCCGAACCCUCUGAUGCUCCCGGAGACUCCUCCGACUCCACACCUCUCGCGGCAGCUGUCAUUUCCAUGUGCACUGGGACGGGAAGUCAAACGAGGAAUUUAAAAAAUGGAAUUCUCGGGUGCCAA` — result for “RBNS enrichment (R)”: 0.267.

Sample 4
Target: Interferon regulatory factor 7, full length, phosphomimetic (IRF7, Homo sapiens, UniProt Q92985, residues 1-503, S101K/S471D/S472D/S475D/S476D/S477D/S483D/S484D/S487D)
Chain of UniProt Q92985 (whole entry, unmodified, looked up): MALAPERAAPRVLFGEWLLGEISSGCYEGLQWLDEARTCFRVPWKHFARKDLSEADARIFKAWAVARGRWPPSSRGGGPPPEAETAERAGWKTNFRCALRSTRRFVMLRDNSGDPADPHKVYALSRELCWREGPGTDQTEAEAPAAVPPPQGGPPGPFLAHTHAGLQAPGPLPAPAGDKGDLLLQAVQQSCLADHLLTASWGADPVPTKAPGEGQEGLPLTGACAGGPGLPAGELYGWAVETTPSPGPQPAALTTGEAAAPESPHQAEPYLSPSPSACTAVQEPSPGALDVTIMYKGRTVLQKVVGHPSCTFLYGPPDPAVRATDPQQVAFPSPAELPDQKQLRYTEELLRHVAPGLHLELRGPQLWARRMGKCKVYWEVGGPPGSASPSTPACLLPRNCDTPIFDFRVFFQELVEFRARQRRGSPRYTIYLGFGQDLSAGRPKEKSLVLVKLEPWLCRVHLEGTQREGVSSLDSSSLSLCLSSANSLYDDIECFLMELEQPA
Method: protein-binding microarray
Molecule type: double-stranded DNA, one strand shown
Matrix: in vitro
Concentration: 250 nM
Notes: 60-bp whole probe
With: salmon DNA 0.4 mg/ml
Baseline: random background probes
Reading: higher = stronger binding
Constant ends, left off below: GCCTAGCAC … GTCTTGATTCGCTTGACGCTGCTG
`GCCGATCTCAGTATCGAGACGTGCTAG` has a log fluorescence of 0.34 z-score.
`TCCACTTGTCTTTTCACTTTGTGCTAG` has a log fluorescence of 1.06 z-score.
The log fluorescence of `GACGGTTTCCGTTTCCTGACGTGCTAG` is reported as 8.99 z-score.
The log fluorescence of `GTGCCCGCTGCTTCCGGTGCGTGCTAG` is reported as -0.0756 z-score.
The log fluorescence of `TTAGGTCTCCCTATCCTTTAGTGCTAG` is reported as 0.324 z-score.
For `ATTGTTTCCTCTTTCACTGCGTGCTAG`, the log fluorescence was 3.48 z-score.
With `TCATCTCTCAAAAGTCACACTGTGCTA` the log fluorescence was 0.684 z-score.
With `GACGATATCAGTATCGAGAGGTGCTAG` the log fluorescence was -0.135 z-score.
`TAGTTTATACTCTAGATGATGTGCTAG` has a log fluorescence of 0.733 z-score.
`TTAGAACTGAGTATCGATTAGTGCTAG` gave a log fluorescence of 0.591 z-score.
The log fluorescence of `TTAGGTATCGACTTTTGGTTAGTGCTA` is reported as 0.464 z-score.
The log fluorescence of `TTAGGACTGGGAATCGGTTAGTGCTAG` is reported as 0.48 z-score.
With `GACGGTTTCGACTTCCGGGACGTGCTA` the log fluorescence was 11.5 z-score.
The log fluorescence of `GACGGACGGCTACTGCTGACGTGCTAG` is reported as -1.23 z-score.
`GACGGGTTCGGTCTCGGGACGTGCTAG` has a log fluorescence of 0.892 z-score.
The log fluorescence of `GAAGAACTGGGGTTTCGAGACGTGCTA` is reported as 2.43 z-score.
`TTAGATATCGGGACTGGGTTAGTGCTA` gave a log fluorescence of -0.0744 z-score.
With `GACGATAACGGGTATCGAGACGTGCTA` the log fluorescence was -0.54 z-score.
`TCACTCACCTAGTTTCATACTGTGCTA` gave a log fluorescence of 1.2 z-score.
With `GACGGACTGGGGTATCGTGACGTGCTA` the log fluorescence was -0.697 z-score.
`TCACATTTCCAATTACCACTGTGCTAG` has a log fluorescence of 1.87 z-score.
For `TCAACTTTCTGAATGCTACTGTGCTAG`, the log fluorescence was 0.386 z-score.
The log fluorescence of `GACGATATCGGATATCGAGACGTGCTA` is reported as 0.282 z-score.
With `TTAGAACTGGGGACTGGATGAGTGCTA` the log fluorescence was -0.725 z-score.
With `GTCGGTTTCGGTTTCGGGACGTGCTAG` the log fluorescence was 14.6 z-score.

Some of these lines once more (sample 1):
`CATTCCAG` has an E-score of 0.0184.
`CAGTTGTC` has an E-score of 0.105.
With `GTACCAAA` the E-score was 0.0052.
`CATGCTCA` has an E-score of -0.0867.
With `CGCCGTTC` the E-score was 0.047.
`ACGCATCT` has an E-score of 0.0837.
For `TCTTACCA`, the E-score was -0.0676.
